# Experimental data gathered from unrelated publications.
# Protocols differ between the studies behind these lines. ± gives the spread as reported.
# APP: Amyloid-beta precursor protein (APP, Homo sapiens, UniProt P05067)
# Sequence of UniProt P05067 (whole entry, looked up): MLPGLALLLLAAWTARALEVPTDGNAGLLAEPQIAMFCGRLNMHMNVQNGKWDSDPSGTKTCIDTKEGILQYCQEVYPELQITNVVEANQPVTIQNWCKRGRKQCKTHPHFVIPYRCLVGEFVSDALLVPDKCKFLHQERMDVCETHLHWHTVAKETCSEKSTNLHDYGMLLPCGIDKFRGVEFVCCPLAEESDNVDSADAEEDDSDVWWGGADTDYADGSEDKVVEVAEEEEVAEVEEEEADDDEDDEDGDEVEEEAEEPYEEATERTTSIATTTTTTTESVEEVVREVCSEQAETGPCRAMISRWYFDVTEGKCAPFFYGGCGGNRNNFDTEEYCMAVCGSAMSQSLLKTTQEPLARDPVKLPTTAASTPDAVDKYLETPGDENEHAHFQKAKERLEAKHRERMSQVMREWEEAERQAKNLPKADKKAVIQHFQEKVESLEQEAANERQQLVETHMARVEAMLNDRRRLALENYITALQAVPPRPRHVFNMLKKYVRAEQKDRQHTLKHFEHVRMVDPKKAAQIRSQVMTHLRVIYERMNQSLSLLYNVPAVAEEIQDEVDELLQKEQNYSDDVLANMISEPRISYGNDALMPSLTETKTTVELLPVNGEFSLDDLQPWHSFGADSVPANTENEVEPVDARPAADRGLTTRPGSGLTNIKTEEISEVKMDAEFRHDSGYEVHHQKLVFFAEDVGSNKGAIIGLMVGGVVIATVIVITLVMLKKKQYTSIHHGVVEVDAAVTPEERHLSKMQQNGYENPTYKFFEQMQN
# APP Aβ42 aggregates: Amyloid-beta precursor protein, Aβ42 aggregates (APP, Homo sapiens, UniProt P05067)
# APP Aβ40 fibrils: Amyloid-beta precursor protein, Aβ40 fibrils (APP, Homo sapiens, UniProt P05067)
SMILES,target,assay,test system,setting,scale,quantity,value
CC[C@H](C)[C@H](NC(=O)[C@@H](NC(=O)[C@@H](N)C(C)C)C(C)C)C(=O)NCC(N)=O,APP,"amyloid aggregation, inhibitor, fluorescence",,"2 µM, 24 h",,inhibition,62.7%
COCCOCCOCCOC(=O)C(C#N)=Cc1ccc(N(C)C)cc1,APP Aβ42 aggregates,"binding, fluorescence spectroscopy",PBS,"4 µM, together with: pre-aggregated Aβ(1-42) 5 µM",,emission maximum,470 nm
[123I]c1ccc2nc(-c3ccc(-n4ccnn4)nc3)cn2c1,"Amyloid-beta precursor protein, amyloid-beta (APP, Homo sapiens, UniProt P05067)",SPECT,"Alzheimer's disease patients, Frontal cortex",150 to 240 min,reference: cerebellum,SUVR,1.22 ± 0.32
COCCOCCOCCOCCOC(=O)/C(C#N)=C/c1ccc2cc(N3CCCCC3)ccc2c1,APP Aβ42 aggregates,fluorescence,,together with: aggregated Abeta42 5 µM,reference: free compound,emission intensity increase,8.4 fold
CC(C)C[C@@H]1NC(=O)CN(C)C(=O)CCC(=O)NCCCC[C@@H](C(=O)N[C@@H](CCCNC(=N)N)C(N)=O)NC(=O)[C@H](Cc2ccccc2)NC(=O)[C@H](Cc2ccccc2)NC(=O)[C@H](C(C)C)NC1=O,APP Aβ40 fibrils,ThT fluorescence,,"2-fold molar excess, pH 7.4, 37 °C, together with: preformed Aβ1-40 fibrils 40 µM",,amyloid fibril disruption,70%
O=C(C=Cc1ccc(O)c(OC(F)(F)F)c1)C1=C(C=Cc2ccc(O)c(OC(F)(F)F)c2)OCC1,APP,"Aβ aggregation, SDS-PAGE western blot, refers to: Aβ1-42 75-200 kDa band",,"30 µM, 24 h, 37 °C, together with: Aβ1-42 10 µM",reference: DMSO,band density,3060 ± 854%
CC[C@H](C)[C@H](NC(=O)[C@H](Cc1ccccc1)NC(=O)[C@@H](N)C(C)C)C(=O)N[C@@H](C)C(N)=O,APP,"amyloid aggregation, inhibitor, fluorescence",,"4 µM, 24 h",,inhibition,61.7%
N#C/C(=C\c1ccc2cc(N3CCCCC3)ccc2c1)C(=O)OCC(O)CO (stereo not shown),APP Aβ42 aggregates,fluorescence,,together with: aggregated Abeta42 5 µM,,emission maximum,535 nm
CC[C@H](C)[C@@H]1NC(=O)[C@H]([C@@H](C)O)NC(=O)[C@H](Cc2ccc(O)cc2)NC(=O)[C@H](CCCNC(=N)N)NC(=O)[C@@H]2CCCN2C(=O)[C@H]2CCCN2C(=O)[C@H]([C@@H](C)O)NC(=O)[C@H](C(C)C)NC(=O)[C@H](C(C)C)NC(=O)[C@H](CCCCN)NC(=O)[C@H](CO)NC(=O)[C@@H](CCC(N)=O)NC(=O)[C@H](CO)NC(=O)[C@H](Cc2ccc(O)cc2)NC(=O)[C@H](CO)NC(=O)[C@H](Cc2ccc(O)cc2)NC(=O)[C@@H]2CCCN2C(=O)[C@H](CO)NC(=O)[C@H](CC(C)C)NC(=O)[C@H](CC(C)C)NC(=O)[C@H](C)NC(=O)[C@H](C)NC1=O,"Amyloid-beta precursor protein, Aβ40 (APP, Homo sapiens, UniProt P05067)","amyloid-beta aggregation, dynamic light scattering",PBS,"14 µM, 5 h, 37 °C, together with: 140 µM amyloid-beta",,hydrodynamic diameter,~1000 nm
COCCOCCOCCOC(=O)C(C#N)=Cc1ccc2cc(N3CCCCC3)ccc2c1,APP Aβ42 aggregates,"binding, fluorescence spectroscopy",PBS,"4 µM, together with: pre-aggregated Aβ(1-42) 5 µM",reference: probe without Aβ,fluorescence intensity,9.3 fold
CC(C)C[C@@H]1NC(=O)CN(C)C(=O)CCCCC(=O)NCCCC[C@@H](C(=O)N[C@@H](CCCNC(=N)N)C(N)=O)NC(=O)[C@H](Cc2ccccc2)NC(=O)[C@H](Cc2ccccc2)NC(=O)[C@H](C(C)C)NC1=O,APP Aβ40 fibrils,ThT fluorescence,,"2-fold molar excess, pH 7.4, 37 °C, together with: preformed Aβ1-40 fibrils 40 µM",,amyloid fibril disruption,52.1%
CCN(CC)c1ccc(C=C(C#N)C(=O)OCCOCCOCCOC)cc1,APP Aβ42 aggregates,"binding, fluorescence spectroscopy",PBS,"4 µM, together with: pre-aggregated Aβ(1-42) 5 µM",reference: probe without Aβ,fluorescence intensity,4.2 fold
CC[C@H](C)[C@H](NC(=O)[C@@H](NC(=O)[C@@H](NC(=O)[C@@H](N)C(C)C)C(C)C)[C@@H](C)CC)C(N)=O,APP,"amyloid aggregation, inhibitor, fluorescence",,"4 µM, 24 h",,inhibition,0%

# Some of these lines once more:
SMILES,target,assay,test system,setting,scale,quantity,value
O=C(C=Cc1ccc(O)c(OC(F)(F)F)c1)C1=C(C=Cc2ccc(O)c(OC(F)(F)F)c2)OCC1,APP,"Aβ aggregation, SDS-PAGE western blot, refers to: Aβ1-42 75-200 kDa band",,"30 µM, 24 h, 37 °C, together with: Aβ1-42 10 µM",reference: DMSO,band density,3060 ± 854%
